Measured values from different studies.
Numbered parts are unrelated; each lists some results of a single study.

Block 1 — method: universal PBM; molecule type: double-stranded DNA, one strand shown; sample: in vitro; concentration: 600 nM; direction: higher = stronger binding; quantity: E-score
Target: Sal-like protein 4, full length isoform A (SALL4, Homo sapiens, UniProt Q9UJQ4, residues 1-1053)
Chain of UniProt Q9UJQ4 (whole entry, looked up): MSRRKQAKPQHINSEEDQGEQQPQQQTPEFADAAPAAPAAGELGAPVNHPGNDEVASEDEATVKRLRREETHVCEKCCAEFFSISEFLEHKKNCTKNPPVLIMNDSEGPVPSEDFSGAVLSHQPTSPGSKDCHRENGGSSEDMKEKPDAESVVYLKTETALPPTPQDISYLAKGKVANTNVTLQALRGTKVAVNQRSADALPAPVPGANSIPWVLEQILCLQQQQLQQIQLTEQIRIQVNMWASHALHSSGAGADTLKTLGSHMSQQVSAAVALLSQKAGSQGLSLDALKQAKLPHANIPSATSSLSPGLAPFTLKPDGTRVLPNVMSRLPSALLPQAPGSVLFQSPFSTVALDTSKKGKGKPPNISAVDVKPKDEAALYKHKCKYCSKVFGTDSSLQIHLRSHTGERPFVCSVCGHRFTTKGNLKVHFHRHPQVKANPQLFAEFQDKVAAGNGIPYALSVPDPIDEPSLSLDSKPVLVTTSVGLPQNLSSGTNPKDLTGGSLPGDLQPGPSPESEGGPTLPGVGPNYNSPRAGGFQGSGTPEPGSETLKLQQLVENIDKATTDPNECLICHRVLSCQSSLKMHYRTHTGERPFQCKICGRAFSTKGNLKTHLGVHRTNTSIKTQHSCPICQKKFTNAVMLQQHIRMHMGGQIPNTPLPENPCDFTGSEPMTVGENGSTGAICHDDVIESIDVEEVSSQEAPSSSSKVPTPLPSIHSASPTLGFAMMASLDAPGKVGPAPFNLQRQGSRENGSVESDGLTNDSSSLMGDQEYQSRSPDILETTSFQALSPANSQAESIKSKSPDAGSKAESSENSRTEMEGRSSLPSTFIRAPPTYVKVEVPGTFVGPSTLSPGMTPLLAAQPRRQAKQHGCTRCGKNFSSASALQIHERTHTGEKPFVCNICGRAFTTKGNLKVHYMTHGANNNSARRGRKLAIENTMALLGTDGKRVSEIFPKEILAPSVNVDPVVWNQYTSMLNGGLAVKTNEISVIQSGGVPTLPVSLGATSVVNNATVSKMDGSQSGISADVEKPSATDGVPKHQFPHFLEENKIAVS
Notes: 8-mer, flanks averaged, mean of replicates
CCTATACC: -0.00698
AGCCAACC: -0.165
ATCAAAGG: 0.11
ACTCAGCA: -0.0549
CCAGGTCA: -0.126

Block 2 — method: protein binding microarray; molecule type: double-stranded DNA, one strand shown; sample: in vitro; concentration: not given; baseline: not given; direction: higher = stronger binding; quantity: E-score
Target: Histone acetyltransferase KAT6A, both winged helices, GST fusion (KAT6A, Homo sapiens, UniProt Q92794, residues 1-181)
Notes: 8-mer, flanks averaged, mean of 2 arrays, mostly near background
Target sequence (chain): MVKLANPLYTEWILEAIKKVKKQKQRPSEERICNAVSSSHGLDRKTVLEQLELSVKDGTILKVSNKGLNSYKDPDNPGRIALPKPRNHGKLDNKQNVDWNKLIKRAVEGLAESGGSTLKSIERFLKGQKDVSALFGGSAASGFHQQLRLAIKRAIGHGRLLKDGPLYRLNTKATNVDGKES
ATCTGAAG: -0.0447
GCGTTAGA: 0.0978
ACGTGGCA: -0.149
AGACTAGC: -0.102
CTGGGTAA: -0.215
CAGGGACG: 0.025
ACCCAGGC: -0.149

Block 3 — method: protein-binding microarray; molecule type: double-stranded DNA, one strand shown; sample: in vitro; concentration: 2540 nM top; notes: 60-bp whole probe; with: salmon DNA 0.4 mg/ml; baseline: random background probes; direction: higher = stronger binding; quantity: fitted relative affinity
Target: Interferon regulatory factor 3, full length, phosphomimetic (IRF3, Homo sapiens, UniProt Q14653, residues 1-427, S386D/S396D/S398D/S402D/T404D/S405D)
All sequences stand within: GCCTAGCAC … GTGCTAGGTCTTGATTCGCTTGACGCTGCTG
Target sequence (chain): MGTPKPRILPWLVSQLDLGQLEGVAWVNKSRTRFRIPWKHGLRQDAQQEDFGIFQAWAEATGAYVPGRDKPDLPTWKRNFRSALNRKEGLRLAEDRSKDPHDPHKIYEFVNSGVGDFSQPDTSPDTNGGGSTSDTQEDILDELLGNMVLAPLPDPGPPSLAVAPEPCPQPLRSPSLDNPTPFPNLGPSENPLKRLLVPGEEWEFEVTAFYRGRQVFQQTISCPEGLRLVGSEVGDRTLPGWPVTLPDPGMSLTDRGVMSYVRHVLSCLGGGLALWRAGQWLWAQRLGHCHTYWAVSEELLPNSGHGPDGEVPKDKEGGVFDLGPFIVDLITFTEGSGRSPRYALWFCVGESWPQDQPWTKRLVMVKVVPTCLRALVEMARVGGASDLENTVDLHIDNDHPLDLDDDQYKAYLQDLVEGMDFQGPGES
GACGGTTTCGGTTCGGGGAC: 7.84 z-score
TATGTTTTTCATTTTGTTCA: 2.07 z-score
TTAGGTTTCCTTTCCCTTTC: 10.7 z-score
GACGGTATCGGTGTCGGGAC: 2.49 z-score
GACGGTTGCCTTCTCCTGAC: 5.49 z-score
GACGGTTTCGGTATCGGGAA: 8.56 z-score

Single results of other studies
PhoQ, residues 284 288 289 292 302 303 QWQEDG  fold induction (PhoP, residues 12 14 15 18 19 LWHVM (Escherichia coli, UniProt P23836); Sort-seq, refers to: YFP reporter; E. coli; PhoQ-PhoP variant library, with: 10 µM Mg2+; baseline: high Mg2+ state, higher = stronger signaling): 6.57

Excerpt of the above (block 3):
GACGGTATCGGTGTCGGGAC: 2.49 z-score
